Measurements from different studies.
Every numbered part comes from another study and shows a few of its results, in no order. Positions count from the first letter of the parent shown.

Sample 1
Target: Ras GTPase-activating protein-binding protein 1, full length (G3BP1, Homo sapiens, UniProt Q13283)
UniProt Q13283, sequence (whole entry, looked up): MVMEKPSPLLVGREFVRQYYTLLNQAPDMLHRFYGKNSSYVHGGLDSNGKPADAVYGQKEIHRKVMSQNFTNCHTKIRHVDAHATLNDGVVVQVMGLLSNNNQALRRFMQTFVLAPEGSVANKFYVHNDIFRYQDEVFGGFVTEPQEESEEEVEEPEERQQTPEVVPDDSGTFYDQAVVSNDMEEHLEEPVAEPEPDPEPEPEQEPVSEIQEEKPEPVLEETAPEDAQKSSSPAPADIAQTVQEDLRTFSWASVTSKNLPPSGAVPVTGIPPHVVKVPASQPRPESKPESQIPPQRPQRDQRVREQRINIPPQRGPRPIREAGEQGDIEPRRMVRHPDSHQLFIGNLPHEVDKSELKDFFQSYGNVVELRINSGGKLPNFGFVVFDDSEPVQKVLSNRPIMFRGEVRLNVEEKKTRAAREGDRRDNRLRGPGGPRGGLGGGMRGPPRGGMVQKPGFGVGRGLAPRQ
Technique: RNA Bind-n-Seq
Molecule type: RNA
Sample: in vitro
Concentration: 200 nM
Setting: whole 134-nt RNA, ends assumed
Together with: 150 mM KCl
Reference: input library
Direction: higher = stronger binding
Constant ends, left off below: GGGAGUUCUACAGUCCGACGAUC … UGGAAUUCUCGGGUGUCAAGG
| Strand | log2 enrichment |
| --- | --- |
| CUCAAGUCCUGUGCUACACAUCGUAUGUACCGAAUCGGUGGAAAGGUUUUUGGAAAGUAUUAUGUUACGCCGUUCGGAUCUGCACUUCCA | -0.482 |
| CAAGUCCUGUGCUACACAUCGUAUGUACCGAAUCGGGUUUUGGUUUUGGUUUUGGGAAAGUAUUAUGUUACGCCGUUCGGAUCUGCACUU | -1.12 |
| UGGCCCUGGUGGCAUGCGGGGAGGAAGAGGUGGCCUCAUGGAUCGUGGUGGUCCCGGUGGAAUGUUCAGAGGUGGCCGUGGUGGAUACAG | 0.245 |
| AAGUCCUGUGCUACACAUCGUAUGUACCGAAUCGGAAAAAAAGGAGGAAAAAAAGGAAAGUAUUAUGUUACGCCGUUCGGAUCUGCACUU | -0.814 |
| GUCCUGUGCUACACAUCGUAUGUACCGAAUCGGGAAAAAAAGGGAAAAAAAGGGUGGGAAAGUAUUAUGUUACGCCGUUCGGAUCUGCAC | -0.072 |
| UCCUCAAGUCCUGUGCUACACAUCGUAUGUACCGAAUCGGUGGGUGGGUGGGAAAGUAUUAUGUUACGCCGUUCGGAUCUGCACUUCCAG | 1.35 |
| UGGCCCUGGUGGCAUGCGGGGAGGAAGAGGUGGCCUCAUGGAUCGUGGUGGUCCCGGUGGAAUGUUCAGGGGUGGCCGUGGUGGAGACAG | 0.311 |
| UGGGAGGAGGAUUUUGUUUAUUUUUUUAGCUCAUUUCCAGGGGUGGGAAUUUUUUUUUAAUAUGUGUCAUGAAUAAAGUUGUUUUUGAAA | -0.497 |
| GUCCUGUGCUACACAUCGUAUGUACCGAAUCGGGGUUUUUGGGGUUUGGGGUUUGGGGAAAGUAUUAUGUUACGCCGUUCGGAUCUGCAC | 0.813 |
| CACAGACAACCCGCACCCACACAGACACAGAGGGAAGGGGUUGGGAUGGGGACAGGGUGCACAGCAGGGCGGGGUAGGACCCCAGCCCCU | 2.04 |
| UGGCCCUGGUGGCAUGCGGGGAGGAAGAGGUGGCCUCAUGGAUCGUGGUGCUCCCGGUGGAAUGUUCAGAGGUGGCCGUGGUGGAGACAG | 1.27 |
| CAAGUCCUGUGCUACACAUCGUAUGUACCGAAUCGGUUUGGUUUGGAAAAAAAGGAAAGUAUUAUGUUACGCCGUUCGGAUCUGCACUUC | -0.818 |
| ACCAUGCAGGUGGGCAUCUUUGGGAAGUGGGGCAAGGGGGGGAUAGGGAGGGGGGUAACACUUCGGGAACAGGUGGUCCCAGGUCGUUUC | 1.31 |
| UCCUGUGCUACACAUCGUAUGUACCGAAUCGGGGAAAAAAAGGGGUUUUUGGGGUGGGGAAAGUAUUAUGUUACGCCGUUCGGAUCUGCA | 0.625 |

Sample 2
Target: Phosphate system positive regulatory protein PHO4, full length, GST-tagged (PHO4, Saccharomyces cerevisiae, UniProt P07270, residues 1-312)
Technique: competition protein-binding microarray
Molecule type: double-stranded DNA, one strand shown
Sample: in vitro
Concentration: 2 µM
Setting: whole 60-bp probe, lowest competitor level
Together with: Cbf1 competitor, 0.05 µM
Direction: higher = stronger binding
Constant ends, left off below: … GTCTTGATTCGCTTGACGCTGCTG
Construct (chain): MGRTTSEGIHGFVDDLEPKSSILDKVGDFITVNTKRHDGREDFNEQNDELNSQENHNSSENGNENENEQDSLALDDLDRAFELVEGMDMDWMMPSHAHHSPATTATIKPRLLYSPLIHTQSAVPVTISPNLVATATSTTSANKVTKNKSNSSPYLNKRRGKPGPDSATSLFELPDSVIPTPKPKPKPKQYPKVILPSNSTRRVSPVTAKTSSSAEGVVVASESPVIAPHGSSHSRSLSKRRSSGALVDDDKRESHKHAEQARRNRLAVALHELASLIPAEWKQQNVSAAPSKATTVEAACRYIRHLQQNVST
| Strand | fluorescence intensity [a.u.] |
| --- | --- |
| CTGTGTTAACTTCAACACGTGAGGAATTTGCTTCAT | 16700 |
| CAGAATTTAGGCCTACACGATGGATGAAAAGGTGTA | 6970 |
| GGCAAGGGTCCGTTTCGCGTGACGAATCATAGCGGG | 5140 |
| GGGATTTCGTTACAGCACGTGGCAAGCAGAGGAAGA | 18700 |
| CGTCCTAGTGATTGTCACGTGGGTGCCATGAGGAAG | 18200 |
| CTTCTGTAAATTTGGTTCGTGGGTGGACGCGCCCCG | 6630 |
| CGGGGTTAAGTTTGTAGGGTGGGTGGCTTGCAGCAG | 5360 |
| AAAGCGGTAATTTGTATGGTGGGTGCAGATATCTAT | 4190 |
| CGGGGTTAAGTTTGGTGTGTGGGTGGCTTGCAGCAG | 5500 |
| CTTCTGTAAATTTTTCACGTGCATTGACGCGCCCCG | 12000 |
| AACTATCTGAAAATTCACGTGATGGTCATTTGAGTA | 13200 |
| CAATTAGAAAAACAGCACGTGGAGGTATATAGAGAG | 19100 |
| TAGTCAAGTAGCCATCACGTGAGGATAATATATTAC | 12100 |
| CTAACGAAGGTTTGCCCCGTGGGTGACAAGCCAAGT | 11200 |
| AAGAAGGCATTCCTCCACGTGACGGAAGACTTTGGA | 14200 |
| GTCTTGTCTCATTTTCACGTGCTATTCCCCACTTCA | 14800 |
| CAAGAAATCTTGTTCCTCGTGGCCGAATGGTTACGG | 11300 |
| CAATACCAGGACCTTTACGTGCAAATTTAGAGCGAA | 3970 |
| CTAGACCAGTAGCAACACATGGACCGATAACACCAG | 8620 |

Sample 3
Target: Interferon regulatory factor 5, full length, phosphomimetic (IRF5, Homo sapiens, UniProt Q13568-2, residues 1-514, S451D/S453D/S456D/S462D)
Technique: protein-binding microarray
Molecule type: double-stranded DNA, one strand shown
Sample: in vitro
Concentration: 940 nM top
Setting: 60-bp whole probe
Together with: salmon DNA 0.4 mg/ml
Reference: random background probes
Direction: higher = stronger binding
Constant ends, left off below: GCCTAGCAC … GTCTTGATTCGCTTGACGCTGCTG
| Strand | fitted relative affinity [z-score] |
| --- | --- |
| TCATGTCTGTGTCACAGACTGTGCTAG | -0.25 |
| CTTTGACTCTTTCTGTCAGTGTGCTAG | 0.71 |
| CCCGTTCACCCACGACCCTTGTGCTAG | 0.501 |
| TTATGTTTCGACTATCGGTTAGTGCTA | 4.95 |
| TGGGAGCTCAGGAATCCCACGTGCTAG | -0.575 |
| AACTTGGCAGGAGCGAATGGGTGCTAG | -0.561 |
| TTAGGACTGGGGACTGGTTTAGTGCTA | -0.26 |
| CATGCTCTTATATACCTGTATGTGCTA | 0.588 |
| TTAGGTCTCGGTTACGGTTAGTGCTAG | 5.24 |
| GACGGTATCGGGTTTCGGCACGTGCTA | 5.4 |
| GACGGTATCGGGTTTCGGGAGGTGCTA | 5.45 |
| TTCTCTTTCATTGCTGCCCTGTGCTAG | 2.2 |

Sample 4
Target: Sal-like protein 4, full length isoform B (SALL4, Homo sapiens, UniProt Q9UJQ4-2, residues 1-616)
Technique: universal PBM
Molecule type: double-stranded DNA, one strand shown
Sample: in vitro
Concentration: not given
Setting: 8-mer, flanks averaged, mean of replicates
Direction: higher = stronger binding
| Strand | E-score |
| --- | --- |
| TAGGATGA | 0.0227 |
| AGGTCGAC | -0.0887 |
| TCGCCGAA | -0.0643 |
| CTAGTCTC | -0.0209 |
| ATCCGTTA | 0.123 |
| AGAAGAGA | 0.0111 |
| CATAACAA | 0.328 |
| ACGACTTC | -0.0677 |
| CTGCATTA | -0.00963 |
| GCCTGCAC | -0.319 |
| CAGAGGCA | -0.0394 |
| ATACTATG | 0.227 |
| GAACCCTC | -0.27 |
| ATCATGGC | 0.0508 |
| ACCGGAGG | -0.184 |
| GGTGACCA | -0.16 |
| GATTGAAC | -0.0382 |
| AAATTTCG | 0.171 |
| CAACAGGG | -0.185 |
| CTTGCATA | 0.207 |
| AAGAGGAG | -0.223 |
| ACGACACA | 0.0588 |

Sample 5
Target: ABI1, truncated, D143A, DHFR fusion (Arabidopsis thaliana)
Technique: DHFR PCA, deep sequencing
Sample: yeast
Setting: methotrexate growth selection, single substitutions
Together with: (+)-ABA 17 µM
Reference: wild-type fitted maximum
Direction: higher = stronger binding
Starting sequence: PYL1, truncated, DHFR fusion (Arabidopsis thaliana); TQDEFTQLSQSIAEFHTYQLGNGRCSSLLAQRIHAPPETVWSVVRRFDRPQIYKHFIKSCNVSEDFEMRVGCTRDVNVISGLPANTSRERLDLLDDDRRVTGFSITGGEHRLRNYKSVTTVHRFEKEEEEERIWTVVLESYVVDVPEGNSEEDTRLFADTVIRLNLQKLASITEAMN; partner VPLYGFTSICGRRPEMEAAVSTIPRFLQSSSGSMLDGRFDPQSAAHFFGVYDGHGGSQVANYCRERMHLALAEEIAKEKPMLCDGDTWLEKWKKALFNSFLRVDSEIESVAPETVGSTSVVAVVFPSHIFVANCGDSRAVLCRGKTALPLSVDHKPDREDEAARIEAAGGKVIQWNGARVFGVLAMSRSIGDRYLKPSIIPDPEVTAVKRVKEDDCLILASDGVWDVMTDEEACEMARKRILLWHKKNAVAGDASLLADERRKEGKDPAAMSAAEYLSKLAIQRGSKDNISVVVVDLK
| Substitution | relative binding score |
| --- | --- |
| P83W | 3.48% |
| K116S | 91.2% |
| D65M | 62.1% |
| D48W | 5.87% |
| D159A | 19.4% |
| I172T | 65% |
| Y141R | -9.47% |
| N22W | 70.8% |
| S9N | 71.4% |
| I52G | 59.8% |
| A158D | -10.5% |
| D144A | 27.8% |
| E67C | 79.9% |
| D153P | -4.03% |

Sample 6
Target: Histone acetyltransferase KAT6A, winged helix 1, GST fusion (KAT6A, Homo sapiens, UniProt Q92794, residues 1-85)
Technique: protein binding microarray
Molecule type: double-stranded DNA, one strand shown
Sample: in vitro
Concentration: not given
Setting: 8-mer, flanks averaged, mean of 2 arrays, mostly near background
Reference: not given
Direction: higher = stronger binding
Construct (chain): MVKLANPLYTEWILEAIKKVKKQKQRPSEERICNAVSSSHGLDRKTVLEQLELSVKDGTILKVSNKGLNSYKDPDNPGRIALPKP
| Strand | E-score |
| --- | --- |
| CGCAATGA | 0.0547 |
| TCCACACA | -0.158 |
| CATGAAGA | -0.179 |
| CAGCTCGA | -0.0881 |
| CTTGGGAA | -0.141 |
| ACCAATGG | -0.158 |
| AGGGGATC | -0.02 |
| ATCACGCC | 0.0335 |
| TAAGTGAA | -0.219 |
| GTTCAACA | -0.014 |
| CAATGTCC | -0.0375 |
| GCCGATCA | 0.0514 |
| AATGTCAT | -0.0408 |
| GGGGTTGA | 0.00553 |
| ACTAAAGA | -0.0132 |

A few entries again (sample 5):
| Substitution | relative binding score |
| --- | --- |
| P83W | 3.48% |
| K116S | 91.2% |
| D65M | 62.1% |
| D48W | 5.87% |
| D159A | 19.4% |
| I172T | 65% |
| Y141R | -9.47% |
| N22W | 70.8% |
| S9N | 71.4% |
| I52G | 59.8% |
